Experimental data collected from several papers.
Numbered parts are unrelated; each lists some results of a single study.
Sequence of UniProt P29320 (whole entry, looked up): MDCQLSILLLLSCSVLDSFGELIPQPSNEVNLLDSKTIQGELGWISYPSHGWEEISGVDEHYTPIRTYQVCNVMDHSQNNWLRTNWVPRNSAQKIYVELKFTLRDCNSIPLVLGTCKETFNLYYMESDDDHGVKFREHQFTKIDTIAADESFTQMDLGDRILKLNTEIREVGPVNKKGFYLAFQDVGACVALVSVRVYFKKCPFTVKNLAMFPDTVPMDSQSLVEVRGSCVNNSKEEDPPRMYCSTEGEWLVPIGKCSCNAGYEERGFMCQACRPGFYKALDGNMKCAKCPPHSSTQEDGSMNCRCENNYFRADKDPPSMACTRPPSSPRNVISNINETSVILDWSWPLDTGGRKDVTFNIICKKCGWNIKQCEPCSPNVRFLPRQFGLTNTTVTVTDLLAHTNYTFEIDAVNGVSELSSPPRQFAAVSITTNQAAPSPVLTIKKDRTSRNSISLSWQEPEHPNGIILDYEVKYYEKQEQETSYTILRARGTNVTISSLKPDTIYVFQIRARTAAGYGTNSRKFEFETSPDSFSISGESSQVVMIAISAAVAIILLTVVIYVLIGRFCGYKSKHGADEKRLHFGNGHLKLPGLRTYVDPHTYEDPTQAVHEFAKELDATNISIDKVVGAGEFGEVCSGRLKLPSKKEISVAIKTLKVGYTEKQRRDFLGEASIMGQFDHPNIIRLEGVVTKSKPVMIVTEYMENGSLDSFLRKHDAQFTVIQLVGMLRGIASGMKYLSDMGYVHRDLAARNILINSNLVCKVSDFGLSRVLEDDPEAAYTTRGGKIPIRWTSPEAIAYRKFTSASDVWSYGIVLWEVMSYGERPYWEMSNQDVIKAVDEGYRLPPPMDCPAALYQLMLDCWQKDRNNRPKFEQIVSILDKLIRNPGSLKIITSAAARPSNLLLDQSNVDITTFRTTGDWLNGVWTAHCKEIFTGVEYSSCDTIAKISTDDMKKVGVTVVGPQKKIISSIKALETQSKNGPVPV
Sequence of UniProt Q9NWZ3 (whole entry, looked up): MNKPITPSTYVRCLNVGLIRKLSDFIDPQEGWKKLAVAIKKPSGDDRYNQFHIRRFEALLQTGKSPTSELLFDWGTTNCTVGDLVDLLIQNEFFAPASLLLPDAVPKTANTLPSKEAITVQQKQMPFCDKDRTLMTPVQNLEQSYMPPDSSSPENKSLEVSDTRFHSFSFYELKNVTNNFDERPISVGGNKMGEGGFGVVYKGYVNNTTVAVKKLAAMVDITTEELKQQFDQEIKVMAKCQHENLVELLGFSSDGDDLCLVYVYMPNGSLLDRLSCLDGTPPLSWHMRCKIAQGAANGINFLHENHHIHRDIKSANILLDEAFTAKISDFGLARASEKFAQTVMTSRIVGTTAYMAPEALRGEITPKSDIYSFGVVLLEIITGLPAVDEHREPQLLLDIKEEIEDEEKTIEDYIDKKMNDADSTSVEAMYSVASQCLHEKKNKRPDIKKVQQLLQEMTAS
Sequence of UniProt P27448 (whole entry, looked up): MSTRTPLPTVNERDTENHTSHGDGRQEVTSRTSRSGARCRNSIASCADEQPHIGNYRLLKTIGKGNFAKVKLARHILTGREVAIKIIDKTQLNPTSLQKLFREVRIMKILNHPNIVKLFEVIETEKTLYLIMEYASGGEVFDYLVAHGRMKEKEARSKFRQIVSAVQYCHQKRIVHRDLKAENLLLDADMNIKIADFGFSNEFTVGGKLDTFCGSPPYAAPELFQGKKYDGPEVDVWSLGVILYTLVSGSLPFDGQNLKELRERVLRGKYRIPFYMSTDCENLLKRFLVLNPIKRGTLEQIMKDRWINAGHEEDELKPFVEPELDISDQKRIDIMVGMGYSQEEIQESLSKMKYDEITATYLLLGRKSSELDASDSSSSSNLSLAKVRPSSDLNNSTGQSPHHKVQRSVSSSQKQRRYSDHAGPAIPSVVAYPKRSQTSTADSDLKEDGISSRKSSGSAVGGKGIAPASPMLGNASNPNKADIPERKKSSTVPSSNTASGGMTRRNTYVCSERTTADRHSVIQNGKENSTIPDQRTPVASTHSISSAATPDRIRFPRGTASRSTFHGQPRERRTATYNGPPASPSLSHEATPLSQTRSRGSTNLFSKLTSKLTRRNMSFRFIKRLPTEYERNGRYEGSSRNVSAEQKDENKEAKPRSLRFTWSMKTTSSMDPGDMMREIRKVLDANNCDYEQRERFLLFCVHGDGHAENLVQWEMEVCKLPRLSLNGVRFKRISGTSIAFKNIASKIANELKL
Sequence of UniProt Q9Y2H9 (whole entry, looked up): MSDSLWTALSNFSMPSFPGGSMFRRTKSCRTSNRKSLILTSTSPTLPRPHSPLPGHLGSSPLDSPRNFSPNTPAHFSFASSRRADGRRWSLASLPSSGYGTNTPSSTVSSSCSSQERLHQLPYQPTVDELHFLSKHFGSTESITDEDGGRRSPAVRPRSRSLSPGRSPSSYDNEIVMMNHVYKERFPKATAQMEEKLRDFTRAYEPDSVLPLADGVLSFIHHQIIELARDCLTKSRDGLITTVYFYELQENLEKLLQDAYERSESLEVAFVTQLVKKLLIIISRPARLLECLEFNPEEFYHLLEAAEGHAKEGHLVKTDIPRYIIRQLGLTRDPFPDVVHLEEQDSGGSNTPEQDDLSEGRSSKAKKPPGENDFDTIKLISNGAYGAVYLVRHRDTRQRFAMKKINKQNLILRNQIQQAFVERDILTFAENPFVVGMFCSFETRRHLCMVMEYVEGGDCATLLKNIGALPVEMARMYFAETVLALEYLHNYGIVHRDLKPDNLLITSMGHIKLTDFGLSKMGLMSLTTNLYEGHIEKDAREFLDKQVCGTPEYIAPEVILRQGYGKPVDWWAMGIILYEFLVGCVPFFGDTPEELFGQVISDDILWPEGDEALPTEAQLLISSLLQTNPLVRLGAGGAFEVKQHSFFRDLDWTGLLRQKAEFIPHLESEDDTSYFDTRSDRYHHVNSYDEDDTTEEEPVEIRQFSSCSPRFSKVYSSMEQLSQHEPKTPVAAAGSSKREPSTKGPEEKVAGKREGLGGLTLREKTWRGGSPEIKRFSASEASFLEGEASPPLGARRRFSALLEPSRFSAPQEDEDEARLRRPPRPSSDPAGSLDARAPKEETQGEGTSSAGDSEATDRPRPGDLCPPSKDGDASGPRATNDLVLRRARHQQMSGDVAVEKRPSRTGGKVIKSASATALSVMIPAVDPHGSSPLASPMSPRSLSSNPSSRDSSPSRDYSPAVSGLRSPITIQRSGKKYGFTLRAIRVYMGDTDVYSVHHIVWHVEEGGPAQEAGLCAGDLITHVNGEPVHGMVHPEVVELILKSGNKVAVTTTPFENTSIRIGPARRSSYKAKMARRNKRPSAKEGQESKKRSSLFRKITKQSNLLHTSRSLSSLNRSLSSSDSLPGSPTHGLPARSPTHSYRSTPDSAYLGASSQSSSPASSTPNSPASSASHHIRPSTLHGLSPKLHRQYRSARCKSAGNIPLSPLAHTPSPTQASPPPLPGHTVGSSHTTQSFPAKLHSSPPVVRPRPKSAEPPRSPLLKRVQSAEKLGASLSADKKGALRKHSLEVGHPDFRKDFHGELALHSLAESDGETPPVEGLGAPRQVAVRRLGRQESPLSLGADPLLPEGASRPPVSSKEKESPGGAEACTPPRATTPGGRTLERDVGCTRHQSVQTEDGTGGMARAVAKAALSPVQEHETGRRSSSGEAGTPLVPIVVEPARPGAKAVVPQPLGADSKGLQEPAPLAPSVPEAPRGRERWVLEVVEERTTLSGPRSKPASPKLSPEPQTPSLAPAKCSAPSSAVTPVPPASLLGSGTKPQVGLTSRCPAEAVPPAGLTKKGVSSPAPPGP
Sequence of UniProt Q00526 (whole entry, looked up): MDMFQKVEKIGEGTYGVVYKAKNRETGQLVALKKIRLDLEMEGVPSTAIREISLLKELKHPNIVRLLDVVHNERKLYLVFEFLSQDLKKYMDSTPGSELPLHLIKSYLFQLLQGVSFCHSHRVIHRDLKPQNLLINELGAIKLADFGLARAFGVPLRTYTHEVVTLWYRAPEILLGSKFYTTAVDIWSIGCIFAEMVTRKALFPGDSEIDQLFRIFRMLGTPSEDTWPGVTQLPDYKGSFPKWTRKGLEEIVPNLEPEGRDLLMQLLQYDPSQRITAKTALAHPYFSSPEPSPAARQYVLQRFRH
Sequence of UniProt Q8IY84 (whole entry, looked up): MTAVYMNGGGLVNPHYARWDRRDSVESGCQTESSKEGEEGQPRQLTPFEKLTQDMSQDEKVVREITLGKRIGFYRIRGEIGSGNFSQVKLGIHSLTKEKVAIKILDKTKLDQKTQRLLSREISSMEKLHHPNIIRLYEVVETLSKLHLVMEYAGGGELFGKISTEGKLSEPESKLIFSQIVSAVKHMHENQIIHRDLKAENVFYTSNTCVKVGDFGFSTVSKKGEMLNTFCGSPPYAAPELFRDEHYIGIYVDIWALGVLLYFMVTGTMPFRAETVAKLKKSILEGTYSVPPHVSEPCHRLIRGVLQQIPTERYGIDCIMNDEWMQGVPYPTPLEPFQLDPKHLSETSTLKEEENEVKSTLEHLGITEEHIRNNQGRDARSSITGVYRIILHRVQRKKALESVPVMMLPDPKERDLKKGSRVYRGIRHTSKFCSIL

Series 1
Target: Serine/threonine-protein kinase NLK (NLK, Homo sapiens, UniProt Q9UBE8)
Sequence of UniProt Q9UBE8 (whole entry, looked up): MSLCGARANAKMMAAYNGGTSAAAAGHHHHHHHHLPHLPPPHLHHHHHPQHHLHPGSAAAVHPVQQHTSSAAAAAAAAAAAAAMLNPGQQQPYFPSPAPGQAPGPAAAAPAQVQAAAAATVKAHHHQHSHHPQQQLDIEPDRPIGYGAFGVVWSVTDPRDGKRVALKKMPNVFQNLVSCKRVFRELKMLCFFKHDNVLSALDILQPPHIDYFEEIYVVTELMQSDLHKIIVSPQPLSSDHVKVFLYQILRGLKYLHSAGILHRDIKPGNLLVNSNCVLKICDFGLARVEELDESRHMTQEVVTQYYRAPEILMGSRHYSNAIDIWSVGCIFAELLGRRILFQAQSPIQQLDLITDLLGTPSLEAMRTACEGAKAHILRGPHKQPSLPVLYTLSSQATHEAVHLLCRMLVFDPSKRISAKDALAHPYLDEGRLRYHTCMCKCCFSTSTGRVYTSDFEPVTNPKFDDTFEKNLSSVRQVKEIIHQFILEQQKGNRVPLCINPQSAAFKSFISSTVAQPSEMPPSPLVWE
Observed: enzyme activity
Mode: inhibitor
Tested at: 0.5 µM
Relative to: control
Quantity: remaining activity
c1ccc(-c2cnc(Nc3ccc(OCCN4CCCC4)cc3)s2)cc1: 89.7%
Ic1cccc(CSc2nnc(-c3ccncc3)o2)c1: 107%
CCN(CC)CCNC(=O)c1c(C)[nH]c(/C=C2\C(=O)Nc3ccc(Cl)cc32)c1C: 101%
N#C/C(=C\c1ccc(O)c(O)c1)C(=O)NCc1ccccc1: 110%
C[C@@H]1CCN(C(=O)CC#N)C[C@@H]1N(C)c1ncnc2[nH]ccc12: 110%
Cc1cc2ncc(-c3ccccc3)nc2cc1C: 92.8%
CN([C@@H](Cc1ccc(OS(=O)(=O)c2cccc3cnccc23)cc1)C(=O)N1CCN(c2ccccc2)CC1)S(=O)(=O)c1cccc2cnccc12: 106%
O=C(Nc1cccc(Nc2nccc(Nc3cccc(C(F)(F)F)c3)n2)c1)C1CC1: 101%
c1ccc(-c2[nH]ncc2-c2ccnc3ccccc23)nc1: 79.8%
O=C1C(Cl)=C(N2C(=O)CCC2=O)C(=O)c2ccccc21: 105%
O=C(NC(NC(=S)Nc1ccc(F)c([N+](=O)[O-])c1)C(Cl)(Cl)Cl)C(c1ccccc1)c1ccccc1 (centres unmarked): 106%
O=c1cc(-c2cccc3c2Sc2ccccc2S3)oc(N2CCOCC2)c1: 108%

Series 2
Species: mouse
Sample: microsomes or S9
Tested at: 2 µM
Time: 0.5 h
Quantity: remaining compound
CC(C)(C)Nc1ncc(-c2cnn(C3CCN(C(=O)OC(C)(C)C)CC3)c2)cc1C(=O)O: 58.2%
CCCN(CCC)C(=O)c1cc2cc(Cl)ncc2n1CCOC: 23.1%
COc1ccccc1CNC(=O)CCCCn1c(=O)c2ccccc2n(Cc2ccccc2C#N)c1=O: 2.19%
CCC(CO)Nc1ncc2cc3ccccc3nc2c1C#N (centres unmarked): 13.9%
CN(Cc1ccccc1)C(=O)c1c(OCC2CC2)cc(=O)n2c1CCOCC2: 53.6%
c1ccc(-n2ccc3cnc(N4CCCCC4)nc32)nc1: 0.0479%
CCn1cc(S(=O)(=O)N2CCN(S(=O)(=O)c3cnn(C)c3)CC2)cn1: 69.7%
O=C(Cc1csc(COc2ccccc2)n1)NCCc1c[nH]c2ccccc12: 0.762%
OCc1onc2c1CCOC2c1ccc(Cl)cc1 (centres unmarked): 74.8%
Oc1c(Cl)c(Nc2ccccc2)c(O)n1-c1ccccc1: 20.2%

Series 3
SMILES: O=S(=O)(NC1CCC(c2cc(F)ccc2F)(S(=O)(=O)c2ccc(Cl)cc2)CC1)C(F)(F)F (centres unmarked)
Observed: cell-free assay
Technique: competition with immobilised ligand
Tested at: 1 µM
Quantity: remaining binding
Ribosomal protein S6 kinase alpha-1, N-terminal kinase domain (RPS6KA1, Homo sapiens, UniProt Q15418): 90%
MAPK7 (Homo sapiens, UniProt Q13164): 92%
CDK3 (Homo sapiens, UniProt Q00526): 100%
NUAK2 (Homo sapiens, UniProt Q9H093): 100%
STK33 (Homo sapiens, UniProt Q9BYT3): 76%
MARK3 (Homo sapiens, UniProt P27448): 79%
Tyrosine-protein kinase JAK2, JH1 (JAK2, Homo sapiens, UniProt O60674): 83%
AXL (Homo sapiens, UniProt P30530): 100%
IRAK4 (Homo sapiens, UniProt Q9NWZ3): 97%
NEK9 (Homo sapiens, UniProt Q8TD19): 100%
MAST1 (Homo sapiens, UniProt Q9Y2H9): 100%
PIM3 (Homo sapiens, UniProt Q86V86): 100%
PHKG2 (Homo sapiens, UniProt P15735): 91%
CDK8 (Homo sapiens, UniProt P49336): 100%
EPHA3 (Homo sapiens, UniProt P29320): 100%
PRKAA2 (Homo sapiens, UniProt P54646): 96%
NIM1K (Homo sapiens, UniProt Q8IY84): 80%

Series 4
Cell line: HaCaT
Tested at: 100 µM
Time: 36 h
Quantity: viability
NC(=O)c1ccccc1O: 84%
CC(C)(Oc1ccc(Cl)cc1)C(=O)O: 96%
CCCCc1ncc(/C=C(\Cc2cccs2)C(=O)O)n1Cc1ccc(C(=O)O)cc1: 44.9%
Nc1ccccc1S(N)(=O)=O: 100%
CC(=O)O[C@]1(C(C)=O)CC[C@H]2[C@@H]3C=C(C)C4=CC(=O)CC[C@]4(C)[C@H]3CC[C@@]21C: 9.99%
CO/N=C(\C(=O)N[C@@H]1C(=O)N2C(C(=O)O)=C(COC(C)=O)CS[C@H]12)c1csc(N)n1: 107%
COc1cc(NS(=O)(=O)c2ccc(N)cc2)ncn1: 79.7%
CO/N=C1\CN(c2nc3c(cc2F)c(=O)c(C(=O)O)cn3C2CC2)CC1CN (centres unmarked): 55.4%

Repeated from above (series 4):
NC(=O)c1ccccc1O: 84%
CC(C)(Oc1ccc(Cl)cc1)C(=O)O: 96%
CCCCc1ncc(/C=C(\Cc2cccs2)C(=O)O)n1Cc1ccc(C(=O)O)cc1: 44.9%
Nc1ccccc1S(N)(=O)=O: 100%
CC(=O)O[C@]1(C(C)=O)CC[C@H]2[C@@H]3C=C(C)C4=CC(=O)CC[C@]4(C)[C@H]3CC[C@@]21C: 9.99%
CO/N=C(\C(=O)N[C@@H]1C(=O)N2C(C(=O)O)=C(COC(C)=O)CS[C@H]12)c1csc(N)n1: 107%
COc1cc(NS(=O)(=O)c2ccc(N)cc2)ncn1: 79.7%
